Measured values of several laboratories.
Each line is one published result; not all experiments were run side by side. “And” joins repeats or separate records; there may be more than shown. ± marks the error that the study gave.
HIPK2: Homeodomain-interacting protein kinase 2 (HIPK2, Homo sapiens, UniProt Q9H2X6)
Sequence of UniProt Q9H2X6 (whole entry, looked up): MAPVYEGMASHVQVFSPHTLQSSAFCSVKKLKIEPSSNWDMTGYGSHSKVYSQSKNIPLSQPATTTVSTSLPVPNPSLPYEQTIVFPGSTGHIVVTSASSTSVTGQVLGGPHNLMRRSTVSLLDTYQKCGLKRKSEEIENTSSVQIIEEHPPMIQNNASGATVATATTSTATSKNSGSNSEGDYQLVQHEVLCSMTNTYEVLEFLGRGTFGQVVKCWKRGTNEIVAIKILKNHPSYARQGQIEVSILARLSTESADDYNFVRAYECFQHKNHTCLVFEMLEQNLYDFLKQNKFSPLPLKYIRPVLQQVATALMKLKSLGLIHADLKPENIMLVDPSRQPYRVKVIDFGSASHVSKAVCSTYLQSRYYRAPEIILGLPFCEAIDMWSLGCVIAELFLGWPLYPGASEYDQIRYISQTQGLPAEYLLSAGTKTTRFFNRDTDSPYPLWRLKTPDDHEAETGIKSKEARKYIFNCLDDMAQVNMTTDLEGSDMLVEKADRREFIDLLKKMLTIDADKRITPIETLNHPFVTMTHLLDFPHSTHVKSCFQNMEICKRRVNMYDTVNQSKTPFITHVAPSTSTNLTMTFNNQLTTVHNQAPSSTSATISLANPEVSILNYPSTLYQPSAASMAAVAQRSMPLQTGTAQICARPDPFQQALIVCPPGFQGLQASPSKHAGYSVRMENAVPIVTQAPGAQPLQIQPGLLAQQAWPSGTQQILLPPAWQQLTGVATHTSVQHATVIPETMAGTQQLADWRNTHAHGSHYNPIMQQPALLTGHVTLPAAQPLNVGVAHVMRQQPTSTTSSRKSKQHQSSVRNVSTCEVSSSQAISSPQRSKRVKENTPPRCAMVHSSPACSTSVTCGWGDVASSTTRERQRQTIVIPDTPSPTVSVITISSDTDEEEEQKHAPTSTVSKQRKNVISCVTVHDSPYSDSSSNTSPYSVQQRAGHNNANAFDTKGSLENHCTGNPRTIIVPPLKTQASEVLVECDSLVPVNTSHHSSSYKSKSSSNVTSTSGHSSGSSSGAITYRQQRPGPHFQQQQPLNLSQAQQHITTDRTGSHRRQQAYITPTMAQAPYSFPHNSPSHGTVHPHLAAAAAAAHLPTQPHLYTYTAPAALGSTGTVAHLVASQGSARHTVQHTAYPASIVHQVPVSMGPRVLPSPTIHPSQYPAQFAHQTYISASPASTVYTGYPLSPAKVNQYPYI
Sequence of UniProt P20782 (whole entry, looked up): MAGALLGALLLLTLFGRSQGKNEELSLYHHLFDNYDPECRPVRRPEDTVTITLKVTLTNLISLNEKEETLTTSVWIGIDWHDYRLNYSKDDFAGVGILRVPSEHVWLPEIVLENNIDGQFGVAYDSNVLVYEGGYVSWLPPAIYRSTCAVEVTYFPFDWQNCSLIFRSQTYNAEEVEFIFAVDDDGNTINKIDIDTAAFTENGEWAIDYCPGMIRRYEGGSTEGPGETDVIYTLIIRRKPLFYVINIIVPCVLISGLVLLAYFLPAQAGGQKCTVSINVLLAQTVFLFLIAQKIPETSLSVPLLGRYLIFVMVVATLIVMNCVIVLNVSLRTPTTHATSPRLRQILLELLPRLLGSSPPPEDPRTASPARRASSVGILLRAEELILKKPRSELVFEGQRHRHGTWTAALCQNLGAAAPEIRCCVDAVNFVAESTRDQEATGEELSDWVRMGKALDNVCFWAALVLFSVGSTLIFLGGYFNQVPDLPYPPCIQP
Sequence of UniProt P0A951 (whole entry, looked up): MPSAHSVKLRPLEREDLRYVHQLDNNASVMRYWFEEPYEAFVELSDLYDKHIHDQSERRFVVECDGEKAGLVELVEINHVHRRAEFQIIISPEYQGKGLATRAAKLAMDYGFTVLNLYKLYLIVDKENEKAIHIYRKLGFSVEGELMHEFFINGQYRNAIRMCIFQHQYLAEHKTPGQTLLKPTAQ
Sequence of UniProt Q9Y243 (whole entry, looked up): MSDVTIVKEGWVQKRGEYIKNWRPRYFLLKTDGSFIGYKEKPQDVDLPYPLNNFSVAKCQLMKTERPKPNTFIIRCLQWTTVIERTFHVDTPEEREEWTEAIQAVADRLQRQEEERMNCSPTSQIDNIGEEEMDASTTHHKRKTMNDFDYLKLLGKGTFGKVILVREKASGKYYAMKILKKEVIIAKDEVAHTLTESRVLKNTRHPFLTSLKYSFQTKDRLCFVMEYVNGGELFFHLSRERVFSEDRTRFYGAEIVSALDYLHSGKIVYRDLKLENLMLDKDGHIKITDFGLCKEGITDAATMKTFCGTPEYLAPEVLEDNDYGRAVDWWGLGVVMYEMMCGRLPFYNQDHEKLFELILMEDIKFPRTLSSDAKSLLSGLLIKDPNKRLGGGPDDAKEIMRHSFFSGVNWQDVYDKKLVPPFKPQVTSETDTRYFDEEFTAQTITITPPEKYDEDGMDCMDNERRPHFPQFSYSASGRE
Sequence of UniProt Q675A5 (whole entry, looked up): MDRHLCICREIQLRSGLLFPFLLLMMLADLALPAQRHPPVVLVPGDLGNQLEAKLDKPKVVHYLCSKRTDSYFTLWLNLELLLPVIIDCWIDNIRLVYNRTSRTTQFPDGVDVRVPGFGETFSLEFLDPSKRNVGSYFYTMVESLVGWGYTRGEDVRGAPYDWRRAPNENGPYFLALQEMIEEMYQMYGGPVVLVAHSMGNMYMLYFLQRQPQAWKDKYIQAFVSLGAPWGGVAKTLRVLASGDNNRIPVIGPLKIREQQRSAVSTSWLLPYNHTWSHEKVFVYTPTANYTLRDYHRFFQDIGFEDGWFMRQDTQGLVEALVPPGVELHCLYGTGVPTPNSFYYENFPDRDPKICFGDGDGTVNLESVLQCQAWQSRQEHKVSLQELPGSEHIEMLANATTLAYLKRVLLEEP
Sequence of UniProt P09936 (whole entry, looked up): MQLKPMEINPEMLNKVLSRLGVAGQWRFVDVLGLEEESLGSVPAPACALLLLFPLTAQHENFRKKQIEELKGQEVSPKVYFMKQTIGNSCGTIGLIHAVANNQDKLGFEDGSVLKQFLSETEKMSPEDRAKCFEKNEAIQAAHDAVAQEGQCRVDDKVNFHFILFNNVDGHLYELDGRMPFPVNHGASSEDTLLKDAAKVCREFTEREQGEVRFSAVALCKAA
Sequence of UniProt Q9NSA0 (whole entry, looked up): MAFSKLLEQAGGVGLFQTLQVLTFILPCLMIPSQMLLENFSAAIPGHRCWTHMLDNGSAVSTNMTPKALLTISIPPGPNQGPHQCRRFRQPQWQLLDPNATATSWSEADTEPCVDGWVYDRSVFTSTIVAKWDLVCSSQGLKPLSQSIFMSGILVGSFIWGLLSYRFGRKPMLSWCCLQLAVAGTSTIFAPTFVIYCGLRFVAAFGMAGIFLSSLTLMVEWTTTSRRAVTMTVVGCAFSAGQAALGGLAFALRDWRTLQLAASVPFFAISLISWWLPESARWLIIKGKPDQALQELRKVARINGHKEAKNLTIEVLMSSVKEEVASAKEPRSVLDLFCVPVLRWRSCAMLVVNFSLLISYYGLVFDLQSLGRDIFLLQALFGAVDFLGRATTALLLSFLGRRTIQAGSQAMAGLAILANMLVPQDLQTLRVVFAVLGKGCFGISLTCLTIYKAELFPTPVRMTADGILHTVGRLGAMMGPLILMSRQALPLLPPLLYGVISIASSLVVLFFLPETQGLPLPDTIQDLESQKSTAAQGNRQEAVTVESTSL
Sequence of UniProt P02716 (whole entry, looked up): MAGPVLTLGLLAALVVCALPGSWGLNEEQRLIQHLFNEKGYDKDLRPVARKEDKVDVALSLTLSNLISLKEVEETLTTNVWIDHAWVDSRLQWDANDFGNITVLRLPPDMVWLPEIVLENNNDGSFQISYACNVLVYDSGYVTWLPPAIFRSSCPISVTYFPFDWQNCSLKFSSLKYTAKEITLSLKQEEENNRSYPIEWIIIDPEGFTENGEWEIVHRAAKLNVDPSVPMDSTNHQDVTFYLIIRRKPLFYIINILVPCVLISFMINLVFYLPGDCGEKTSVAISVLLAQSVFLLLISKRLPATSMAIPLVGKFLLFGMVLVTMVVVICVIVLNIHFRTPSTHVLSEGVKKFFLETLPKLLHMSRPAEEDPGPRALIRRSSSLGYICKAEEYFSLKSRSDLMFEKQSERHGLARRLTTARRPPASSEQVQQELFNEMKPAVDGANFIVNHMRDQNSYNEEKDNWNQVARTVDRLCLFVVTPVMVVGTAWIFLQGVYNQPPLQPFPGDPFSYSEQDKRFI
Sequence of UniProt P28074 (whole entry, looked up): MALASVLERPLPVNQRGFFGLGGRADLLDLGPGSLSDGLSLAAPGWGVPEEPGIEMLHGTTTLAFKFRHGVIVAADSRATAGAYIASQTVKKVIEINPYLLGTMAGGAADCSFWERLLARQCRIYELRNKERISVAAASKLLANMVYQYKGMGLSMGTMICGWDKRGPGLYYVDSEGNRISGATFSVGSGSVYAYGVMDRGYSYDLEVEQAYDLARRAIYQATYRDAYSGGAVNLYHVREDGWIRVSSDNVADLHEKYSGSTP
Sequence of UniProt P04756 (whole entry, looked up): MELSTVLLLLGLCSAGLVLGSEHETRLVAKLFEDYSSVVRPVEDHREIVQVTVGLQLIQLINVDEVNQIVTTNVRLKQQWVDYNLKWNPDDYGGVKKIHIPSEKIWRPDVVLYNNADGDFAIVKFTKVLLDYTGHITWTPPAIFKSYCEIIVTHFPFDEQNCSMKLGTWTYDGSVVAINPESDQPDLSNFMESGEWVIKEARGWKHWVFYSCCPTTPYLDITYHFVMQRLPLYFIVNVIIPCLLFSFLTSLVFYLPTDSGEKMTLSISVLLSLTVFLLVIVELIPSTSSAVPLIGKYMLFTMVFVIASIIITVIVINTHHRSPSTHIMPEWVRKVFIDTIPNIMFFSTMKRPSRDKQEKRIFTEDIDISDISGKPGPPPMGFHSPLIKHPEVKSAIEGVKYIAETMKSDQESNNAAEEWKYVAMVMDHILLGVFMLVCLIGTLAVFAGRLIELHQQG

SMILES | target | assay | system | conditions | how to read | endpoint | value
C[N+]1(C)CCN(c2ccc(C(N)=O)cc2)CC1.[I-] | Nicotinic acetylcholine receptor alpha1/beta1/epsilon/delta (Mus musculus, UniProt P02716+P04756+P09690+P20782) | ion current, inhibitor, two-electrode voltage clamp | Xenopus oocytes | 30 µM, after co-application, unit not given, added: ACh 30 µM | reference: ACh alone | ACh response | 0.547 ± 0.077
CN(C(=O)n1cnc(-c2ccc[n+]([O-])c2)c1)C1CCCCC1 | HIPK2 | kinase activity, inhibitor |  | 10 µM, added: myelin basic protein substrate |  | inhibition | 3%
O=c1oc(-c2cccc([N+](=O)[O-])c2)ns1 | Proteasome Macropain subunit MB1 (PSMB5, Homo sapiens, UniProt P28074) | enzyme inactivation, inhibitor | human PA28-activated proteasome |  |  | kobs/[I] | 10.3 M⁻¹ s⁻¹
O=C(Nc1cnccc1Cl)N1CCN(Cc2ccc3c(c2)OC(F)(F)O3)CC1 | HIPK2 | kinase activity, inhibitor |  | 10 µM, added: myelin basic protein substrate |  | inhibition | -1%
COc1ccc(N2C(=O)N(c3c(C)cccc3Cl)Cc3cnc(Nc4ccc(C5CCN(C)CC5)cc4OC)nc32)nc1 | RAC-gamma serine/threonine-protein kinase (AKT3, Homo sapiens, UniProt Q9Y243) | kinase activity |  | 0.5 µM |  | inhibition | 3%
O=C(O)COP(=O)(O)O | TPI1 (Saccharomyces cerevisiae, UniProt P00942, Y208S) | enzyme activity, competitive inhibitor, GPDH/NADH-coupled |  | pH 8.3, 25 °C, ionic strength 0.1 NaCl, added: glyceraldehyde 3-phosphate substrate | reference: mutant over wild type | Ki ratio | 44
COc1cc(N)c(Cl)cc1C(=O)NC1CN2CCC1CC2 (stereo not shown) | G-prodeshotein coupled receptor 4 (GPR4, Homo sapiens, UniProt P46093) | β-arrestin recruitment, TANGO luminescence |  | concentration not given | reference: basal luminescence | log2 fold change | 0.02
Nc1ccccc1NC(=O)[C@@H]1CS[C@H]2CS[C@H](CS)N21 | sfhI (Serratia fonticola, UniProt Q9RMI1) | activity class |  | concentration not given |  | activity | inactive
CN(C(=O)n1cnc(-c2ccc[n+]([O-])c2)c1)C1CCCCC1 | Lysosomal phospholipase A and acyltransferase (Pla2g15, Rattus norvegicus, UniProt Q675A5) | enzyme activity, ABPP | rat, brain | oral, 100 mg/kg/day, 28 days | reference: vehicle | fold change | -3.5
C[C@]12CC[C@@H]3c4ccc(OS(=O)(=O)O)cc4CC[C@H]3[C@@H]1CCC2=O | Solute carrier family 22 member 11 (SLC22A11, Homo sapiens, UniProt Q9NSA0) | substrate | CHO cells expressing human OAT4 | 5 min, pH 7.4 |  | Jmax | 12.3 ± 0.2 pmol/cm2/min
Cc1cccc(CC(=O)CCl)c1 | Ubiquitin carboxyl-terminal hydrolase isozyme L1 (UCHL1, Homo sapiens, UniProt P09936) | covalent, intact protein LC-MS |  | 12.5 µM |  | labelling | 8.29%
C[C@H]1CN(c2n[nH]c3nc(N[C@H]4CC[C@H](NS(=O)(=O)CCC(F)(F)F)CC4)ncc23)CCO1 | Acyl-CoA dehydrogenase family member 10 (ACAD10, Homo sapiens, UniProt Q6JQN1) | inhibitor, Kinobeads competition profiling |  | 0.8 µM | reference: vehicle | relative abundance | 1.19
CC12CCC(CC1)C(C)(C)O2 | 1,8-cineole 2-endo-monooxygenase (cinA, Citrobacter braakii, UniProt Q8VQF6, N242A) | isothermal titration calorimetry |  | N242A mutant |  | ΔG | -6.7 kcal/mol
CCCC[C@H](NC(=O)[C@H](CC(C)C)NC(=O)CNC(=O)[C@@H](NC(=O)[C@H](Cc1ccccc1)NC(=O)[C@H](CO)NC(=O)[C@@H](N)CC(=O)O)C(C)C)C(N)=O | Substance-K receptor (TACR2, Homo sapiens, UniProt P21452) | radioligand binding, agonist |  | reference compound |  | Hill coefficient | 0.7
C[C@@H](NC(=O)[C@@H](N)Cc1ccc(O)cc1)C(=O)NCC(=O)N(C)[C@@H](Cc1ccccc1)C(=O)NCCO | Mu-type opioid receptor (Oprm1, Mus musculus, UniProt P42866) | agonist | mouse spinal cord membranes | 1.78 µM | reference: baseline | GTPγS binding | 38.4% and 35.2% and 50% and 44.9% and 37.5% and 33.1% and 37.9% and 49.7%
NCCCCNCCCN | speG (Escherichia coli, UniProt P0A951) | substrate, spectrophotometric kinetics |  | cooperative kinetics |  | Km | 590 ± 30.8 µM

Excerpt of the above:
SMILES | target | assay | system | conditions | how to read | endpoint | value
CC12CCC(CC1)C(C)(C)O2 | 1,8-cineole 2-endo-monooxygenase (cinA, Citrobacter braakii, UniProt Q8VQF6, N242A) | isothermal titration calorimetry |  | N242A mutant |  | ΔG | -6.7 kcal/mol
CCCC[C@H](NC(=O)[C@H](CC(C)C)NC(=O)CNC(=O)[C@@H](NC(=O)[C@H](Cc1ccccc1)NC(=O)[C@H](CO)NC(=O)[C@@H](N)CC(=O)O)C(C)C)C(N)=O | Substance-K receptor (TACR2, Homo sapiens, UniProt P21452) | radioligand binding, agonist |  | reference compound |  | Hill coefficient | 0.7
